Measurements collected from several papers.
Numbered parts are unrelated; each lists some results of a single study. Substitutions count along the parent as printed.

Study 1
Target: Sal-like protein 4, full length isoform B (SALL4, Homo sapiens, UniProt Q9UJQ4-2, residues 1-616)
Technique: universal PBM
Molecule type: double-stranded DNA, one strand shown
Medium: in vitro
Concentration: not given
Notes: 8-mer, flanks averaged, mean of replicates
Reading: higher = stronger binding
Target sequence (chain): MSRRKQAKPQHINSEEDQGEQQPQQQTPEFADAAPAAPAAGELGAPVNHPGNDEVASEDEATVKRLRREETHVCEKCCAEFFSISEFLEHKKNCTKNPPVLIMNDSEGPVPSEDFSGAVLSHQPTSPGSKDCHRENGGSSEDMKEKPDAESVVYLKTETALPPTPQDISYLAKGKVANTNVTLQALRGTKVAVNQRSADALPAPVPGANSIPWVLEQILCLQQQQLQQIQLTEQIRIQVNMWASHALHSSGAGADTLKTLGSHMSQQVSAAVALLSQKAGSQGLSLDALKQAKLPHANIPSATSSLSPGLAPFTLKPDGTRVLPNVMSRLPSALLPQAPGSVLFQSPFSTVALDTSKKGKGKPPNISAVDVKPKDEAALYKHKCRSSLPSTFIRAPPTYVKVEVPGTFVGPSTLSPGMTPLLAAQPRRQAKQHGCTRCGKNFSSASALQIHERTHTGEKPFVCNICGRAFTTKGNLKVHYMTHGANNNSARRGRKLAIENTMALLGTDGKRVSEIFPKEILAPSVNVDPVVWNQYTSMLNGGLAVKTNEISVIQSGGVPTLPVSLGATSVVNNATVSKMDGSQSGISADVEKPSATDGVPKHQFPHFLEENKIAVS
| Sequence | E-score |
| --- | --- |
| ACACCACT | 0.0644 |
| GAACCTTA | -0.0118 |
| CCATACCC | -0.106 |
| GAGTGCGA | -0.151 |
| GCCAGCGC | -0.292 |
| AAGACGAT | 0.0977 |
| CGCGGACG | -0.235 |
| CATTTTAC | 0.333 |
| TATCAAGA | 0.182 |
| CCTCCTGA | -0.163 |
| AGCAGGAG | -0.0416 |
| GAAAACAA | 0.208 |
| CCGGAGGA | -0.31 |
| GAATGCTC | -0.147 |
| CGTCCGCA | -0.221 |
| AGGTGATC | -0.00302 |
| AGAGCTAA | -0.0643 |

Study 2
Target: RNA binding protein fox-1 homolog 2, RRM domain, GST-SBP tag (RBFOX2, Homo sapiens, UniProt O43251-10, residues 100-194)
Technique: RNA Bind-n-Seq
Molecule type: RNA
Medium: in vitro
Concentration: 365 nM
Notes: natural RNA segment, single round, ends assumed
Relative to: no-protein control
Reading: higher = stronger binding
Target sequence (chain): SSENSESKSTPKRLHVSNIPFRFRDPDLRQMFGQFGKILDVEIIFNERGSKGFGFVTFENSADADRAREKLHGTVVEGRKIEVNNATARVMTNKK
| Sequence | RBNS enrichment (R) |
| --- | --- |
| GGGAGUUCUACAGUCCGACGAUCUGGGACUUGAAUCCAGAGACGUCCUCCAGGAACCCCUCAACGAAGCUGUGAAUGAAGAGGUUUCCUCUUUAAACCUGUCUGGUGGGCCCCCAGAUAUCCUCACCUCAGGGUGGAAUUCUCGGGUGCCAA | 0.178 |
| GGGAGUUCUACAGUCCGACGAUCUGUGGCGGGGGCCGGCUCGACAGCCACCGGGCCUUUGUGGUCAAAUACGCACCGGGCCAGGACCUGGAGCUGGGCUGCCACUAUGAUAAUGCCGAGCUCACCCUCAAUGUUGGAAUUCUCGGGUGCCAA | 0.347 |
| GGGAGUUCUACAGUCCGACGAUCCAACACCUAAGGUGUUGUGACUGUUCCCCCACCCAGUGCAUGUUCUUUCCCUCCAUUUCUGUGGCUUCCACGUCUGCAGUGGCCACUGAUACUCACUUGAGUCAGGCUCCUGGAAUUCUCGGGUGCCAA | 19.2 |
| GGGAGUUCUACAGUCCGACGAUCUUAAGUGCAAAACAUGUAAAUUUGGUUCCCAGAGUGGGCCAAUCUCUCUGUUCUUGUUAUCUUAGCCAACUAUACUGAUACCUACAGCUACAGAAAGCAGGACUAGGAACUGGAAUUCUCGGGUGCCAA | 0.27 |
| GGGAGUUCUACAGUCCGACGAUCCUUUAAUAACUAGCUGGGGAAAAGAUUAUGUAAUUACUUGGGGCUCUGCAGGACCUUCUCUGUCCAGCGCCCCCUUUCUGUUGUGCGAUUAGUUGUAGCUGCCAUGCUCAUGGAAUUCUCGGGUGCCAA | 0.378 |
| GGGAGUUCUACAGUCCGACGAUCCAGCAGUUUUGUGGUCUGCUAAUUGUGUGCUGCACACACAGCUGCCUGCUCUAGGGCCUGCCCAGCCCUGAGGGAGGCUAGUCAGCGCCUCCCUACUGCGCCCCUGUAGGUGGAAUUCUCGGGUGCCAA | 0.382 |
| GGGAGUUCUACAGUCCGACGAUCAAAAGGCUCUUGUACAAAAUGUAGAUUAAAAUUUGGGUGAUUGUUGAUUGACCUUUGCAUACCCUGGAAAGCCAGGGUGUGAGUGGGGUGGUUGGGAGUGGUGCCAGUUGUGGAAUUCUCGGGUGCCAA | 0.944 |
| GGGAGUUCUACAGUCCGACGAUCGGCUGCGCCUGCUGCCUCCAGCCCUGAGGAUGGCAUCUAGUGUGCCCGUGCGUGGCCAUACCCUGCCUCCCUCUCUGGCCCUGGGAGGGCAGCUUGGAGCCCAGGUAGGGUGGAAUUCUCGGGUGCCAA | 0.799 |

Study 3
Target: ABI1, truncated, D143A, DHFR fusion (Arabidopsis thaliana)
Technique: DHFR PCA, deep sequencing
Medium: yeast
Notes: methotrexate growth selection, single substitutions
Added: (+)-ABA 2500 µM
Relative to: wild-type fitted maximum
Reading: higher = stronger binding
Parent: PYL1, truncated, DHFR fusion (Arabidopsis thaliana); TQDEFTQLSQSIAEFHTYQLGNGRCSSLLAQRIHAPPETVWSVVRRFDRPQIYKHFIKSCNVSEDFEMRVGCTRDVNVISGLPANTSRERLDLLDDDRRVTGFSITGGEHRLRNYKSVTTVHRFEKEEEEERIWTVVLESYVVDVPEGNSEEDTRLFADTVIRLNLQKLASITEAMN
| Variant | relative binding score [%] |
| --- | --- |
| S104K | 95.6 |
| V161P | 10.3 |
| K126L | 99.8 |
| R111Q | 86.1 |
| T39I | 98.5 |
| Y141H | 27.7 |
| N61H | 87.9 |
| V43T | 95.6 |
| R90L | 80.8 |
| E4Q | 94.7 |
| E174V | 94.9 |
| A158I | 94.8 |
| I133G | 111 |
| R98N | 102 |
| R123F | 95 |
| T154F | 41.2 |
| L164I | 96.9 |

Study 4
Target: Myc proto-oncogene protein, bHLH-zipper, MAX partner unstated (MYC, Homo sapiens, UniProt P01106, residues 368-449)
UniProt P01106, sequence (368-449, looked up): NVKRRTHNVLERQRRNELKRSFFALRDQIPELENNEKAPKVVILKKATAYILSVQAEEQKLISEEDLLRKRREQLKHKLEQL
Technique: protein-binding microarray
Molecule type: double-stranded DNA, one strand shown
Medium: in vitro
Concentration: not given
Notes: k-mer, scored over probes, only values ≥0.25
Reading: higher = stronger binding
| Sequence | E-score |
| --- | --- |
| CATGCCTA | 0.362 |
| CGTGATCC | 0.257 |
| ACCCACCC | 0.343 |
| ACGAGGCA | 0.373 |
| GCGACCGC | 0.275 |
| CACGCGTC | 0.439 |
| AACGTGCT | 0.417 |
| CCCTACCA | 0.264 |
| CCACACGG | 0.289 |
| GCGTGAAC | 0.256 |
| CATGGACG | 0.301 |
| GGCACGAC | 0.274 |
| CGTGGCTC | 0.413 |
| ACGCTTCA | 0.273 |
| CGCATGAA | 0.281 |
| CCCACCCG | 0.26 |
| CCACGCCG | 0.431 |

Study 5
Target: Ras GTPase-activating protein-binding protein 1, RRM domain (G3BP1, Homo sapiens, UniProt Q13283)
UniProt Q13283, sequence (whole entry, looked up): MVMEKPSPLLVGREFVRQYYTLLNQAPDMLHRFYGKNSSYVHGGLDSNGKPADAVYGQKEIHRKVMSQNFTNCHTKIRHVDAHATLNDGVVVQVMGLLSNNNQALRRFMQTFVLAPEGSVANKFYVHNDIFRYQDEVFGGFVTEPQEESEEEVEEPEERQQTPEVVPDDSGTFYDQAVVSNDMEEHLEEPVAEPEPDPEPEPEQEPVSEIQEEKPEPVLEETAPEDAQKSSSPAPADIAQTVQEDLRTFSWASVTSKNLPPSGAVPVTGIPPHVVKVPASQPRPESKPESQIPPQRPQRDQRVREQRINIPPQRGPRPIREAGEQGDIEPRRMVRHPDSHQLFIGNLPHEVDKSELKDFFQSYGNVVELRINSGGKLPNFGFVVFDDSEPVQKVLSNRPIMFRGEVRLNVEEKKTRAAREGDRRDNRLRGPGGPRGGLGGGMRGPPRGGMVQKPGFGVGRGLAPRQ
Technique: RNA Bind-n-Seq
Molecule type: RNA
Medium: in vitro
Concentration: 1 µM
Notes: whole 134-nt RNA, ends assumed
Added: 150 mM KCl
Relative to: input library
Reading: higher = stronger binding
| Sequence | log2 enrichment |
| --- | --- |
| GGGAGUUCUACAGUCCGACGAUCUGGGAGGUGGAUUUUGUUUAUUUUUUUAGCUCAUUUCCAGGGGUGGGAAUUUUUUUUUAAUAUGUGUCAUGAAUAAAGUUGGUUUUGAAAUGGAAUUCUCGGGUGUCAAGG | 1.79 |
| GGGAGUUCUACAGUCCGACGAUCUCCUCAAGUCCUGUGCUACACAUCGUAUGUACCGAAUCGGGUGGGUGGGUGGAAAGUAUUAUGUUACGCCGUUCGGAUCUGCACUUCCAGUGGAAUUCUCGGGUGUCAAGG | 0.486 |
| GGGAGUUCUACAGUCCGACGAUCACCAUGCAGGUGGGCAUCUUGGGGAAGUGGGGCAAGGGGGGGAUAGGGAGGGGGGUAACACUUUGGGAACAGGUGGUCCCAGGUCGUUUCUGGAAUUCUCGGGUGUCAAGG | -0.489 |
| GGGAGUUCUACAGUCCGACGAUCUGGCUUCCUUCUUUCUAUUCCCCGCCUGCCUUCCAUGGUAGAGGCCAGUGACUUUGAGAUUAAUGGACUGGACUUCAUGGUAAGACCCUCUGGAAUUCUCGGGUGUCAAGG | -0.215 |
| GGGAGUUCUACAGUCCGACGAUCUCCUGUGCUACACAUCGUAUGUACCGAAUCGGAAAAAAGGGGAAAAAAGGAAAAAAGGGGAAAGUAUUAUGUUACGCCGUUCGGAUCUGCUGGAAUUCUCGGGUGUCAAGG | -0.023 |
| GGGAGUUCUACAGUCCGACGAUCUGCCAGGCCCACCCCCAGGUGUUCCCGCGCCUGGGGGCCCACCCCUGUCCACCGGACCUAUAGUGGACCUGCUCCAGUACAGCCAGAAGGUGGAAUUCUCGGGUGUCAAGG | -0.591 |
| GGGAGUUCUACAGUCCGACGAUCCUCAAGUCCUGUGCUACACAUCGUAUGUACCGAAUCGGUGGAGGAAAAAAAGGAAAGUAUUAUGUUACGCCGUUCGGAUCUGCACUUCCAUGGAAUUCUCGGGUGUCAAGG | -0.218 |

Some of these lines once more (study 1):
| Sequence | E-score |
| --- | --- |
| AGAGCTAA | -0.0643 |
| TATCAAGA | 0.182 |
| CCTCCTGA | -0.163 |
| GAATGCTC | -0.147 |
| CCGGAGGA | -0.31 |
| AGGTGATC | -0.00302 |
| GAACCTTA | -0.0118 |
| GAGTGCGA | -0.151 |
| AAGACGAT | 0.0977 |
